# Measurements from different studies.
# Lines come from different studies, so protocols differ.
# MTNR1A: Melatonin receptor type 1A (MTNR1A, Homo sapiens, UniProt P48039)
# UniProt P48039, sequence (whole entry, looked up): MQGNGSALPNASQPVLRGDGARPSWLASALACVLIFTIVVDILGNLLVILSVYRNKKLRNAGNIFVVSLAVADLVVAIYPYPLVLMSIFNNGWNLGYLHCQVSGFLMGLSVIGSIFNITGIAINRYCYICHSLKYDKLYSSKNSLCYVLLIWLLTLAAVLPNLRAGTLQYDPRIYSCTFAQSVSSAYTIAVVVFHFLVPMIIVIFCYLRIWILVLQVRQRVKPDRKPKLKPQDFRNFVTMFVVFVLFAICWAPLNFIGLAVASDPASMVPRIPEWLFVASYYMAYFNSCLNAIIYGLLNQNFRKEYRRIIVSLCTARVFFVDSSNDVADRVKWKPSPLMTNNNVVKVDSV
# HTR1F: 5-hydroxytryptamine receptor 1F (HTR1F, Homo sapiens, UniProt P30939)
# UniProt P30939, sequence (whole entry, looked up): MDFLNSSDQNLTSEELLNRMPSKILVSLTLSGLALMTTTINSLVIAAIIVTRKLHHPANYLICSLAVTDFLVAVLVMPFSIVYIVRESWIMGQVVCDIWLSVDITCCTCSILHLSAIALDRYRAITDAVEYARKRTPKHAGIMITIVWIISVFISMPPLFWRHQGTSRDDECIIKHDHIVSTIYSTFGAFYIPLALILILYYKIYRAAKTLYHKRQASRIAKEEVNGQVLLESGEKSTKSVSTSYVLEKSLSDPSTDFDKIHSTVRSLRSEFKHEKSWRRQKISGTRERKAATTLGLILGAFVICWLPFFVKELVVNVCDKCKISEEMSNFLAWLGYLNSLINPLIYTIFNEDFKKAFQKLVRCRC
# AVPR2: Vasopressin V2 receptor (AVPR2, Homo sapiens, UniProt P30518)
# UniProt P30518, sequence (whole entry, looked up): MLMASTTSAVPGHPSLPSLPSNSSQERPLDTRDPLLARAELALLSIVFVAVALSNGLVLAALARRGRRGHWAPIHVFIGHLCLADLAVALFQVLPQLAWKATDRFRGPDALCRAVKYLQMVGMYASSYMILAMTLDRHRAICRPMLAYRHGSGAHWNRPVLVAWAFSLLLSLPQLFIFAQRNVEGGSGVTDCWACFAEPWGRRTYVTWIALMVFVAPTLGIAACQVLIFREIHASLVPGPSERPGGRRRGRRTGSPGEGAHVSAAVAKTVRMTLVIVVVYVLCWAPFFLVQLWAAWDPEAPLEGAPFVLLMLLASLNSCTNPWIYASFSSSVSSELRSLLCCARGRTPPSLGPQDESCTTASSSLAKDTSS
# MTNR1B: Melatonin receptor type 1B (MTNR1B, Homo sapiens, UniProt P49286)
# UniProt P49286, sequence (whole entry, looked up): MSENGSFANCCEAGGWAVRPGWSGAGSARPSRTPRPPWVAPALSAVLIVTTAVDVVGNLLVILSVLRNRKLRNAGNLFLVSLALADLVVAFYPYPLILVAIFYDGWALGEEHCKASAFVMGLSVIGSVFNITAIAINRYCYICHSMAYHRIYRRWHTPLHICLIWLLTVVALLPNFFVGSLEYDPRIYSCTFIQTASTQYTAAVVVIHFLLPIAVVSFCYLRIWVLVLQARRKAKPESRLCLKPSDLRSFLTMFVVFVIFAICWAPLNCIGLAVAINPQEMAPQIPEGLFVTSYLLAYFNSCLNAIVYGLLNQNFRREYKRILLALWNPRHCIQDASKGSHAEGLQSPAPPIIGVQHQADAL
# ADORA3 I253Q/V169F: Adenosine receptor A3 (ADORA3, Homo sapiens, UniProt P0DMS8, I253Q/V169F)
# UniProt P0DMS8, sequence (whole entry, unmodified, looked up): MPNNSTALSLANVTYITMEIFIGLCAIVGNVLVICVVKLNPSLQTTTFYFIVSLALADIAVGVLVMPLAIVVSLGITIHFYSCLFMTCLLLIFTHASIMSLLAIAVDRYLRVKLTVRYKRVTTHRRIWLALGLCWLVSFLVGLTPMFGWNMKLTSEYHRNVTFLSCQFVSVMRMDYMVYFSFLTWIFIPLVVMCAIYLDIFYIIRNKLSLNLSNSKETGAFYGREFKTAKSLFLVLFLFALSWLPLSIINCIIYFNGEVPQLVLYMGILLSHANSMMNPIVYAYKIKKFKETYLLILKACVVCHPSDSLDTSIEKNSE
# UniProt P41968, sequence (whole entry, looked up): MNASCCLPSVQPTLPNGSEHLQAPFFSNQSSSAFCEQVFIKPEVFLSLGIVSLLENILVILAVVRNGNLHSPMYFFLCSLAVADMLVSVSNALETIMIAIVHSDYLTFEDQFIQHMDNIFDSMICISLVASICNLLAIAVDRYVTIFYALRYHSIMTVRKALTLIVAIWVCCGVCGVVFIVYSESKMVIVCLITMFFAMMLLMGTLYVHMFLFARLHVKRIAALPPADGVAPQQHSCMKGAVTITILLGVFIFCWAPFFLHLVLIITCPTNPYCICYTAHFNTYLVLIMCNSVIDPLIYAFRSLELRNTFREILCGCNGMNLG
# UniProt Q16581, sequence (whole entry, looked up): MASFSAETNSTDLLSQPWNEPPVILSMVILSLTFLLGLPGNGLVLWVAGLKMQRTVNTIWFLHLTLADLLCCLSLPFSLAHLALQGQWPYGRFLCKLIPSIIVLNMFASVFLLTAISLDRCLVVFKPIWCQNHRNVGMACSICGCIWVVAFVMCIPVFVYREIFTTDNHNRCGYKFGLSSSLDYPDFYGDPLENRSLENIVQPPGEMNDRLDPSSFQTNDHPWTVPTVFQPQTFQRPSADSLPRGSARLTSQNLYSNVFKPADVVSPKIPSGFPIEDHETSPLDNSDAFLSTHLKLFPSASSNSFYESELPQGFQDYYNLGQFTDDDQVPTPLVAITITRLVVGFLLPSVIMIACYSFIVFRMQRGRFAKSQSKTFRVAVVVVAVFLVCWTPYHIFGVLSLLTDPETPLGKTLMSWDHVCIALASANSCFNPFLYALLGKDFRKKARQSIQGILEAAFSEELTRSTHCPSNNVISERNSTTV
# UniProt Q9NQS5, sequence (whole entry, looked up): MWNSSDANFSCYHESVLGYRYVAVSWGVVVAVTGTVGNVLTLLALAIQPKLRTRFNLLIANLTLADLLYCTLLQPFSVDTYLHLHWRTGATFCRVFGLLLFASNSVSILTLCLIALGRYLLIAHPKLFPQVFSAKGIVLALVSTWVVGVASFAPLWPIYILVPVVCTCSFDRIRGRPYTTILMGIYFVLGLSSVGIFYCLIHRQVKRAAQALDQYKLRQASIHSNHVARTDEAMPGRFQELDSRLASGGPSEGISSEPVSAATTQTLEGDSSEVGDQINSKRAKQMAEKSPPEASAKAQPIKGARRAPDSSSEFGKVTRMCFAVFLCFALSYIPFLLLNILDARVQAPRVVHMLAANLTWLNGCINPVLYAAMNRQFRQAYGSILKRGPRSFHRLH
SMILES,target,assay,setting,EC50 [nM]
O=c1cc(NCCCCCCO)[nH]c(=O)[nH]1,"GPR84 (Homo sapiens, UniProt Q9NQS5)","cAMP, agonist",,~10000
c1cc(NCc2ccccc2C2CC2)cc(-c2nnc[nH]2)c1,MTNR1A,"cAMP, agonist, luciferase",,3160
COC(=O)[C@@H]1[C@H]2C[C@H]3c4[nH]c5ccccc5c4CCN3C[C@@H]2CC[C@@H]1O,HTR1F,"G protein activation, agonist, BRET",,173
CC(C)C[C@H](NC(=O)[C@@H](N)[C@@H](C)O)C(=O)N[C@@H](CCC(N)=O)C(=O)N1CCC[C@H]1C(=O)N1CCC[C@H]1C(=O)N[C@@H](C)C(=O)N[C@@H](CO)C(=O)N[C@@H](CO)C(=O)N[C@@H](CCCNC(=N)N)C(=O)N[C@@H](CCCNC(=N)N)C(=O)N[C@@H](CCCNC(=N)N)C(=O)N[C@@H](Cc1c[nH]cn1)C(=O)N[C@@H](Cc1ccccc1)C(=O)N[C@@H](Cc1c[nH]cn1)C(=O)N[C@@H](Cc1c[nH]cn1)C(=O)N[C@@H](C)C(=O)N[C@@H](CC(C)C)C(=O)N1CCC[C@H]1C(=O)N1CCC[C@H]1C(=O)N[C@@H](C)C(=O)N[C@@H](CCCNC(=N)N)C(=O)O,"C3AR1 (Homo sapiens, UniProt Q16581)","β-arrestin recruitment, agonist, BRET",,93.5
COc1ccccc1N1CCN(CCCCN2C(=O)c3ccccc3C2=O)CC1,HTR1F,"G protein activation, agonist, BRET",,413
CC1=NN(/C(=N\c2ccncc2)Nc2nnc(C)s2)C(c2ccc(C)cc2)S1 (stereo not shown),AVPR2,"cAMP, positive allosteric modulator",,> 50000
CC(=O)N[C@H](CCCNC(=N)N)C(=O)N[C@H]1CSSC[C@@H](C(N)=O)NC(=O)[C@H](Cc2c[nH]c3ccccc23)NC(=O)[C@H](CCCNC(=N)N)NC(=O)[C@@H](Cc2ccccc2)NC(=O)[C@H](Cc2c[nH]cn2)NC(=O)[C@H](CCC(=O)O)NC1=O,"MC3R (Homo sapiens, UniProt P41968)","cAMP, agonist",,4.2
COc1cc2c(CCNC(C)=O)c[nH]c2cc1I,MTNR1B,"GTPγS binding, agonist, radiometric",cell membranes,1.82
COc1ccc(CNc2cncc(C)c2)cc1,MTNR1A,"cAMP, agonist, luciferase",,2660
CC(C)=CCNc1ncnc2c1ncn2[C@@H]1O[C@H](CO)[C@@H](O)[C@H]1O,ADORA3 I253Q/V169F,"G protein activation, agonist",,1800
Cn1c(=O)oc2c(NCc3ncnn3CC(F)F)cccc21,MTNR1A,"cAMP, agonist, luciferase",,5600
CCN1CCC[C@H]1CNC(=O)c1c(O)c(Cl)cc(Cl)c1OC,HTR1F,"G protein activation, agonist, BRET",,20.8
COc1ccc2ncn(CCNC(C)=O)c2c1,MTNR1B,"cAMP, agonist, TR-FRET",,1120
COc1ccc2c(c1)N(Cc1ccnc(C)c1)CCO2,MTNR1A,"cAMP, agonist, luciferase",,0.173
CN(C)c1ncnc2c1ncn2[C@@H]1O[C@H](CO)[C@@H](O)[C@H]1O,ADORA3 I253Q/V169F,"G protein activation, agonist",,21000
CCOc1ccc(CNc2ccc(C)nc2)cc1,MTNR1A,"cAMP, agonist, luciferase",,2520
CC1=NN(/C(=N\c2ccc(C)c(C)c2)Nc2nnc(C)s2)C(c2ccc(C)cc2)S1 (stereo not shown),AVPR2,"cAMP, positive allosteric modulator",,> 50000
CCOC(=O)c1cccnc1N(C)CCc1cnccn1,MTNR1A,"cAMP, agonist, luciferase",,2790
COc1cc(I)c2[nH]cc(CCNC(C)=O)c2c1,MTNR1B,"GTPγS binding, agonist, radiometric",cell membranes,37.2
